Published values of several laboratories.
Numbered parts are unrelated; each lists some results of a single study. Substitutions count along the parent as printed.

Set 1
Target: Interferon regulatory factor 5, full length, phosphomimetic (IRF5, Homo sapiens, UniProt Q13568-2, residues 1-514, S451D/S453D/S456D/S462D)
Method: protein-binding microarray
Molecule type: double-stranded DNA, one strand shown
Matrix: in vitro
Tested at: 940 nM top
Notes: 60-bp whole probe
Added: salmon DNA 0.4 mg/ml
Reference: random background probes
Direction: higher = stronger binding
Quantity: fitted relative affinity
All sequences stand within: GCCTAGCAC … GTCTTGATTCGCTTGACGCTGCTG
TTAGGTTTCCACTTTCGGTTAGTGCTA: 4.78 z-score
GACGGAATGGACTATCGGGACGTGCTA: -0.444 z-score
GACGGACAGGGGTATCGGGACGTGCTA: 0.571 z-score
TTAGAATTCGGGACTGGATTAGTGCTA: -0.451 z-score
GATTCTTTCGATGCTAAACGAGTGCTA: 3.13 z-score
TTAGTTCTCAGACTGGATTAGTGCTAG: 0.229 z-score

Set 2
Target: Ras GTPase-activating protein-binding protein 1, C-terminal RGG region (G3BP1, Homo sapiens, UniProt Q13283)
Chain of UniProt Q13283 (whole entry, looked up): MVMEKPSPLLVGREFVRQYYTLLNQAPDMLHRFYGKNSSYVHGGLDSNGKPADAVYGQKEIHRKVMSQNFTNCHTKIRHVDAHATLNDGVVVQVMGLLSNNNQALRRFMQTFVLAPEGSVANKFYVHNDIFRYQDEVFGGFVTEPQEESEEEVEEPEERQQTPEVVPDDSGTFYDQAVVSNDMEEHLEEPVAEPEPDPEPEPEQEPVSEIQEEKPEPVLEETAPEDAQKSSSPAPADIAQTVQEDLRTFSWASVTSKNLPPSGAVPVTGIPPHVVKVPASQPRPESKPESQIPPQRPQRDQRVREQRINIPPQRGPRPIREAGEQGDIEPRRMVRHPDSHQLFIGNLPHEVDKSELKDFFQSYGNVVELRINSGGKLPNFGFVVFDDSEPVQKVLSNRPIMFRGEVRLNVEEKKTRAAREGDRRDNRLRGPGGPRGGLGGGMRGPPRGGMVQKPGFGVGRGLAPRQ
Method: RNA Bind-n-Seq
Molecule type: RNA
Matrix: in vitro
Tested at: 1 µM
Notes: whole 134-nt RNA, ends assumed
Added: 150 mM KCl
Reference: input library
Direction: higher = stronger binding
Quantity: log2 enrichment
GGGAGUUCUACAGUCCGACGAUCCACAGACAACACGCACCCACACAGACACAGAGGGAAGGGGUUGGGAUGGGGACAGGGUGCACAGCAGGGCGGGGUAGGACCCCAACCCCUUGGAAUUCUCGGGUGUCAAGG: -0.964
GGGAGUUCUACAGUCCGACGAUCUGUGCUACACAUCGUAUGUACCGAAUCGGGAAAAAAAGGGGAAAAAAAGGGGAAAAAAAGGGGAAAGUAUUAUGUUACGCCGUUCGGAUCUGGAAUUCUCGGGUGUCAAGG: -0.752
GGGAGUUCUACAGUCCGACGAUCCUCAAGUCCUGUGCUACACAUCGUAUGUACCGAAUCGGUUGGGGUUGGGUUGGGAAAGUAUUAUGUUACGCCGUUCGGAUCUGCACUUCCUGGAAUUCUCGGGUGUCAAGG: 1.47
GGGAGUUCUACAGUCCGACGAUCCCUGUGCUACACAUCGUAUGUACCGAAUCGGGCCCCCCGGGGCCCCCCGGGCCCCCCGGGGAAAGUAUUAUGUUACGCCGUUCGGAUCUGUGGAAUUCUCGGGUGUCAAGG: -2.24

Set 3
Target: ABI1, truncated, D143A, DHFR fusion (Arabidopsis thaliana)
Method: DHFR PCA, deep sequencing
Matrix: yeast
Notes: methotrexate growth selection, single substitutions
Added: (+)-ABA 58 µM
Reference: wild-type fitted maximum
Direction: higher = stronger binding
Quantity: relative binding score
Parent: PYL1, truncated, DHFR fusion (Arabidopsis thaliana); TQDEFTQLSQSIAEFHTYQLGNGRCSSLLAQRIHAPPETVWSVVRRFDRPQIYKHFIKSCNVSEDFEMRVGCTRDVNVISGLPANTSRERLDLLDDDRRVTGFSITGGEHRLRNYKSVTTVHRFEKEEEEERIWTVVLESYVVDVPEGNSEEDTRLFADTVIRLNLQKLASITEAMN; partner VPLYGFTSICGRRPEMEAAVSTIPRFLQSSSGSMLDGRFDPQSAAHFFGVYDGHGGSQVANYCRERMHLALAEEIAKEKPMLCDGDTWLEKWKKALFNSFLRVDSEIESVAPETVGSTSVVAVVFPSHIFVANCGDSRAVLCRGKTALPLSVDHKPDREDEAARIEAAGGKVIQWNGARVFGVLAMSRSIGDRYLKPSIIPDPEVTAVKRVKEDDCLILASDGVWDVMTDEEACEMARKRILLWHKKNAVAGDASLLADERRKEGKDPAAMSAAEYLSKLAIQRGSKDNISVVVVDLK
E152D: 89%
T39Q: 87.5%
L112T: 1.97%

Other studies, line by line
PhoQ, residues 284 288 289 292 302 303 SSYNSA
fold induction (PhoP, residues 12 14 15 18 19 VHSCL (Escherichia coli, UniProt P23836); Sort-seq, refers to: YFP reporter; E. coli; PhoQ-PhoP variant library, added: 10 µM Mg2+; reference: high Mg2+ state, higher = stronger signaling): 0.951

For quick reference, copied from above (set 2):
GGGAGUUCUACAGUCCGACGAUCCUCAAGUCCUGUGCUACACAUCGUAUGUACCGAAUCGGUUGGGGUUGGGUUGGGAAAGUAUUAUGUUACGCCGUUCGGAUCUGCACUUCCUGGAAUUCUCGGGUGUCAAGG: 1.47
